Results from different studies.
Parts stem from different laboratories: compare values within a part only. Values joined by “and” are separate records of one study, mostly repeats; a detail may differ.
Chain of UniProt Q9NWZ3 (whole entry, looked up): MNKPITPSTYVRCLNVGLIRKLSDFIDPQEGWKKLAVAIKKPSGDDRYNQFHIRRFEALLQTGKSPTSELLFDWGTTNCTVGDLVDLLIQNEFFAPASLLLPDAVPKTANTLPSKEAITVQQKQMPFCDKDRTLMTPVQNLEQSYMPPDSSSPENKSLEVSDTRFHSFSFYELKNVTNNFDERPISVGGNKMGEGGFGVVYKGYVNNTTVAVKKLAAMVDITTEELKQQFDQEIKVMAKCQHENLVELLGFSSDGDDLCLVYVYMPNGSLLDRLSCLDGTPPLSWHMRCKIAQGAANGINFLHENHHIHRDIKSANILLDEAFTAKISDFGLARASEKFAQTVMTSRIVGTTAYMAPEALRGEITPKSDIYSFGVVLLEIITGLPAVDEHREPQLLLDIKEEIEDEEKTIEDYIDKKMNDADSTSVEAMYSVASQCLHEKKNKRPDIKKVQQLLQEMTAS
Chain of UniProt Q05655 (whole entry, looked up): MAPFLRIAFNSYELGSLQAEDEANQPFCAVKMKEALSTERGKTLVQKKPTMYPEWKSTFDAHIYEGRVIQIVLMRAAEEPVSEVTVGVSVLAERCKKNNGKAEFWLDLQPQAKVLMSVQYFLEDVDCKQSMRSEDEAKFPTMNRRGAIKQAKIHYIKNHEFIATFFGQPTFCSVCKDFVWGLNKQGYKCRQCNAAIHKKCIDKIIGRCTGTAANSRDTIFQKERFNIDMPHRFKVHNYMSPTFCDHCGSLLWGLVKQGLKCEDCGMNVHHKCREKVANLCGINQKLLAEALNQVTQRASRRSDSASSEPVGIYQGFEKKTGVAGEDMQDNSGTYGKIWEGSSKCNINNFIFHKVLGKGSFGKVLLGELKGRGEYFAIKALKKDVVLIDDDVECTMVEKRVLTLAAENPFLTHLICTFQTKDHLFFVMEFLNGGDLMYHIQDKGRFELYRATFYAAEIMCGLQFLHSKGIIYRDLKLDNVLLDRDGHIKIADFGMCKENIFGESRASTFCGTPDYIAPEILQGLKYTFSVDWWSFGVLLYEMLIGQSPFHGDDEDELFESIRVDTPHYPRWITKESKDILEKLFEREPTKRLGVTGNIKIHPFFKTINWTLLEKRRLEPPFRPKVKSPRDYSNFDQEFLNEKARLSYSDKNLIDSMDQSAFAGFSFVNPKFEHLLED
Chain of UniProt P37173 (whole entry, looked up): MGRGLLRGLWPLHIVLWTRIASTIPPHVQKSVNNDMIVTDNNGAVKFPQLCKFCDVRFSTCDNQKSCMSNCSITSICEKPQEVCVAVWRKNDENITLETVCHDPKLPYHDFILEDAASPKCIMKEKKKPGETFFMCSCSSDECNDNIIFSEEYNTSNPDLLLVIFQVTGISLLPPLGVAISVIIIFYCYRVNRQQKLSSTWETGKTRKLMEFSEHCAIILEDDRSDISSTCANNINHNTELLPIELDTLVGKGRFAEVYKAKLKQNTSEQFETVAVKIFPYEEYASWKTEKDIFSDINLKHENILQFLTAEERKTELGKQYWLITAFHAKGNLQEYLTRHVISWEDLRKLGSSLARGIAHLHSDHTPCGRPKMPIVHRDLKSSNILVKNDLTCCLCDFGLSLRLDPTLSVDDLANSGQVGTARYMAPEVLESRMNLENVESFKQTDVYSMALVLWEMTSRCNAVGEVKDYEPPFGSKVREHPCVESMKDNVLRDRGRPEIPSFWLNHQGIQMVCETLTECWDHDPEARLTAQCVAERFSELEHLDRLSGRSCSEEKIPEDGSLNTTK
Chain of UniProt P48729 (whole entry, looked up): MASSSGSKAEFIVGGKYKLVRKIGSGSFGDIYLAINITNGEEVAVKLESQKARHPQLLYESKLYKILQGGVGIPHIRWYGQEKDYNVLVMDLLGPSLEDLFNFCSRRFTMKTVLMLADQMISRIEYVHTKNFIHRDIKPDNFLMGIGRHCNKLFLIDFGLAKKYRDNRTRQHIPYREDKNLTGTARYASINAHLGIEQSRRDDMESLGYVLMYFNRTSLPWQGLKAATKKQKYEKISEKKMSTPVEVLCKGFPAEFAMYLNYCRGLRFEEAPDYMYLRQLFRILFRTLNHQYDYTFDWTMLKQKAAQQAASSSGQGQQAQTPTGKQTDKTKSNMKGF
Chain of UniProt P50750 (whole entry, looked up): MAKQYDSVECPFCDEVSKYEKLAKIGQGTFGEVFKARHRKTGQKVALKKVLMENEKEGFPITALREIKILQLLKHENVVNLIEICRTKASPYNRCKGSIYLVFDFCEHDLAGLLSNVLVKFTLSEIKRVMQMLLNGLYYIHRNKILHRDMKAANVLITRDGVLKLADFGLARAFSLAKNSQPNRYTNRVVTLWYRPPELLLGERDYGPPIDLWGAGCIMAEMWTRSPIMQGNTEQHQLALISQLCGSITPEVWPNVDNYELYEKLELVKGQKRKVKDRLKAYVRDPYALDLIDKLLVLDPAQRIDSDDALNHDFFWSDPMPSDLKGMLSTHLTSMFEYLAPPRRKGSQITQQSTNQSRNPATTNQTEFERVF

Sample 1
Structure (SMILES): CN(C)CC#Cc1ccc(OCCCc2sc(N3CCc4cccc(C(=O)Nc5nc6ccccc6s5)c4C3)nc2C(=O)O)c(F)c1
Observed: cell-free assay
Technique: competition with immobilised ligand
Concentration: 1 µM
Measurement: remaining binding
Cyclin-dependent kinase 8 (CDK8, Homo sapiens, UniProt P49336): 69%
Serine/threonine-protein kinase RIO2 (RIOK2, Homo sapiens, UniProt Q9BVS4): 100%
Serine/threonine-protein kinase MARK2 (MARK2, Homo sapiens, UniProt Q7KZI7): 100%
Tyrosine-protein kinase CSK (CSK, Homo sapiens, UniProt P41240): 90%
Ephrin type-A receptor 6 (EPHA6, Homo sapiens, UniProt Q9UF33): 100%
Proto-oncogene tyrosine-protein kinase receptor Ret (RET, Homo sapiens, UniProt P07949, V804L): 100%
Testis-specific serine/threonine-protein kinase 3 (TSSK3, Homo sapiens, UniProt Q96PN8): 84%
Cyclin-dependent kinase 4, with cyclin D1 (CDK4, Homo sapiens, UniProt P11802): 100%
3-phosphoinositide-dependent protein kinase 1 (PDPK1, Homo sapiens, UniProt O15530): 100%
Tyrosine-protein kinase JAK2, JH1 (JAK2, Homo sapiens, UniProt O60674): 100%
TGF-beta receptor type-2 (TGFBR2, Homo sapiens, UniProt P37173): 83%
Interleukin-1 receptor-associated kinase 4 (IRAK4, Homo sapiens, UniProt Q9NWZ3): 100%
Mitogen-activated protein kinase 15 (MAPK15, Homo sapiens, UniProt Q8TD08): 100%
Fibroblast growth factor receptor 3 (FGFR3, Homo sapiens, UniProt P22607, G697C): 88%
Atypical kinase COQ8B, mitochondrial (COQ8B, Homo sapiens, UniProt Q96D53): 99%
Phosphorylase b kinase gamma catalytic chain, liver/testis isoform (PHKG2, Homo sapiens, UniProt P15735): 100%
Serine/threonine-protein kinase tousled-like 1 (TLK1, Homo sapiens, UniProt Q9UKI8): 86%
Phosphatidylinositol 4,5-bisphosphate 3-kinase catalytic subunit gamma isoform (PIK3CG, Homo sapiens, UniProt P48736): 100%
Tyrosine-protein kinase receptor UFO (AXL, Homo sapiens, UniProt P30530): 92%
Tyrosine-protein kinase ABL1, non-phosphorylated (ABL1, Homo sapiens, UniProt P00519, Q252H): 88%
Serine/threonine-protein kinase Nek1 (NEK1, Homo sapiens, UniProt Q96PY6): 100%
Serine/threonine-protein kinase NIM1 (NIM1K, Homo sapiens, UniProt Q8IY84): 100%
Phosphatidylinositol 4,5-bisphosphate 3-kinase catalytic subunit alpha isoform (PIK3CA, Homo sapiens, UniProt P42336, C420R): 100%

Sample 2
Target: DNA polymerase theta, ATPase domain (POLQ, Homo sapiens, UniProt O75417)
Chain of UniProt O75417 (whole entry, unmodified, looked up): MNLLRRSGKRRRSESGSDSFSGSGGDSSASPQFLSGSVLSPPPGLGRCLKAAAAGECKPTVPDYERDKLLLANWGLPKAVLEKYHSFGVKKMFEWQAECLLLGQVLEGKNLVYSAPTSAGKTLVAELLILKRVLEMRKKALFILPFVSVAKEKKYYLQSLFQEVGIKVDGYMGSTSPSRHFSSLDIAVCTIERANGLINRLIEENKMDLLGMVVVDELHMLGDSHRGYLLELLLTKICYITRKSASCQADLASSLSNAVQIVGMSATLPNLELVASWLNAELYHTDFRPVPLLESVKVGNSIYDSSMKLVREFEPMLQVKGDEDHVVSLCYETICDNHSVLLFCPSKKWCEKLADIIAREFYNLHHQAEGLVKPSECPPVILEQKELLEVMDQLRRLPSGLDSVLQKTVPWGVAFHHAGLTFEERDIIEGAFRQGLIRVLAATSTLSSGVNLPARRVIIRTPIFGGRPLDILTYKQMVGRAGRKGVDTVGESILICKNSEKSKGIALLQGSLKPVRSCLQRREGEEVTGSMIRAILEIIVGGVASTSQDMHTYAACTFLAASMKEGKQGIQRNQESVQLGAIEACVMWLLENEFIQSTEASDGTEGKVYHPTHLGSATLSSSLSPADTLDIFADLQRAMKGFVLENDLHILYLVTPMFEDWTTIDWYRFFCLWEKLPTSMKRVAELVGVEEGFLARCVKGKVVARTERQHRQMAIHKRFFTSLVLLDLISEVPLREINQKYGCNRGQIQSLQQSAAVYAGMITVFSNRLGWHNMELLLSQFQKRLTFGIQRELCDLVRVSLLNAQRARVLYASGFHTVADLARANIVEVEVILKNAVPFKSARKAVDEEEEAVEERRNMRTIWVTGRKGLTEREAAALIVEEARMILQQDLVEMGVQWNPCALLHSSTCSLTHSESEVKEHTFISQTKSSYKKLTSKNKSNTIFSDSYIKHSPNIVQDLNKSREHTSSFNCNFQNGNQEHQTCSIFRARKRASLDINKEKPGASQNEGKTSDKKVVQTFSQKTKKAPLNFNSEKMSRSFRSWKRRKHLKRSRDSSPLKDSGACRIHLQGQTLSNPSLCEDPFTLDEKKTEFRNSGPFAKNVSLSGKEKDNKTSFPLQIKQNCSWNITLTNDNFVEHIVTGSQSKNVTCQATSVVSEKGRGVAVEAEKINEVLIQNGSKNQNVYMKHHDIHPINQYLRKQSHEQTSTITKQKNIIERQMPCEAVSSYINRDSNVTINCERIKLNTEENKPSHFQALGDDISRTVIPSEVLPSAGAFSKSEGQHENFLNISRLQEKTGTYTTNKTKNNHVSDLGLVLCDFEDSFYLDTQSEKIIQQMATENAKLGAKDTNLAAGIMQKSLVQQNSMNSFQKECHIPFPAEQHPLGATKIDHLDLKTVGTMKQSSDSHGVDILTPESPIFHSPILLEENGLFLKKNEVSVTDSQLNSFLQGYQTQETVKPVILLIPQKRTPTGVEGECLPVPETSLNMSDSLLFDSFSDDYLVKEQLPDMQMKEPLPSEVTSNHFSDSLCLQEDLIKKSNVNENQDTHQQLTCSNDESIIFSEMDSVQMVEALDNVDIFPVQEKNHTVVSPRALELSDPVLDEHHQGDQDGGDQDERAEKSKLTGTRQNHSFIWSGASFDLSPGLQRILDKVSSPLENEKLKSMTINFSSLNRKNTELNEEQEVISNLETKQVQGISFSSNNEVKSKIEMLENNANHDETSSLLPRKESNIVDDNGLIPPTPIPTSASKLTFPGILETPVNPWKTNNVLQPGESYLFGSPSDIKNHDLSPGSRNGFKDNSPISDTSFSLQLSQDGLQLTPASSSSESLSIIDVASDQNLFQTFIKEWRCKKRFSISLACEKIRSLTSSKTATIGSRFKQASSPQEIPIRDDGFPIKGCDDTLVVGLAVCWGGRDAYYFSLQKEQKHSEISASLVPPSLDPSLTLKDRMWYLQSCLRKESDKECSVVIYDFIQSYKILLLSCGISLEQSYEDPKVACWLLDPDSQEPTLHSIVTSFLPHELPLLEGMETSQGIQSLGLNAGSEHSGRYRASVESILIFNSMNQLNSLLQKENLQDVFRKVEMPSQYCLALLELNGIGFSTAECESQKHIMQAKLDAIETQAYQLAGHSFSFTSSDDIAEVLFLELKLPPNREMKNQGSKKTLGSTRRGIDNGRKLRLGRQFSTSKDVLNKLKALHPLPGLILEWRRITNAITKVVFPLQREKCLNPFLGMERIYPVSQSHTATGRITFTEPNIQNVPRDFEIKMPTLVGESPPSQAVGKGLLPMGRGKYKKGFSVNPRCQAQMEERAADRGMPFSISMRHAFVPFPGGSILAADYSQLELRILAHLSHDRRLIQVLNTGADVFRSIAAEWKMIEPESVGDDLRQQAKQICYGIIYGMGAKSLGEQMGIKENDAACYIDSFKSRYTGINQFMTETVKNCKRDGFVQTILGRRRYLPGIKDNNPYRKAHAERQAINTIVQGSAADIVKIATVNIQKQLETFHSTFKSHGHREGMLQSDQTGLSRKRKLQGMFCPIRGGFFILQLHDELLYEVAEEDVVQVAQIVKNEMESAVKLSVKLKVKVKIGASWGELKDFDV
Observed: enzyme activity
Action: inhibitor
Concentration: 77 µM
Relative to: untreated
Measurement: remaining activity
C=C1/C(=C\C=C2/CCC[C@]3(C)[C@@H]([C@H](C)/C=C/[C@H](C)C(C)C)CC[C@@H]23)C[C@@H](O)C[C@@H]1O: 102%
Cc1cn([C@@H]2C[C@@H](O)[C@H](CO)O2)c(=O)[nH]c1=O: 101%
CN1C(=O)OC(C)(C)C1=O: 98.9%
CCS(=O)(=O)CCn1c([N+](=O)[O-])cnc1C: 102% and 77.9%
Cc1cnc(Nc2ccc(N3CCN(C)CC3)cc2)nc1Nc1cccc(S(=O)(=O)NC(C)(C)C)c1: 98.5%
O=C(O)c1ccc2c(c1)nc(Nc1cccc(Cl)c1)c1ccncc12: 95.3%
Cn1c(=O)cc(N2CCC[C@@H](N)C2)n(Cc2cc(F)ccc2C#N)c1=O: 102%
O=C(O)[C@H](O)[C@@H](O)[C@H](O[C@@H]1O[C@H](CO)[C@H](O)[C@H](O)[C@H]1O)[C@H](O)CO: 99.3%
CN1CCN(C2=Nc3ccccc3Oc3ccc(Cl)cc32)CC1: 95.3% and 90.1%
O=c1c(O)c(-c2ccc(O)c(O)c2)oc2cc(O)c(O)c(O)c12: 97.3%
CC(C)(C(=O)NCC(F)(F)C(F)(F)F)C(=O)N[C@@H]1C(=O)Nc2ccccc2-c2ccccc21: 101%
Cc1nc(C#Cc2ccnc(Cl)c2)c(C)n1-c1ccc(OC(F)(F)F)cc1: 95.2%
CN1c2cc(O)c(N=NC(N)=O)cc2CC1S(=O)(=O)O (stereo not shown): 101%
Nc1ncn(C2O[C@H](CO)[C@@H](O)[C@H]2O)c(=O)n1 (stereo partly shown): 101%

Sample 3
SMILES: CN(C(=O)c1ccn2ncc(-c3ccc(C(N)=O)cc3)c2c1)c1ccc(C#N)cn1
Organism: Cryptosporidium parvum
Technique: time-kill
Cells: HCT-8
Strain: nanoluciferase-expressing
Reading: higher = more parasites
Measurement: parasite luminescence
0.7407 µM, 24 h: 63200 RLU and 81100 RLU
0.00305 µM, 72 h: 147000 RLU and 171000 RLU
0.00305 µM, 24 h: 233000 RLU and 218000 RLU
20 µM, 8 h: 91700 RLU and 78300 RLU
2.222 µM, 4 h: 94500 RLU and 107000 RLU
20 µM, 4 h: 92300 RLU and 90400 RLU
0.2469 µM, 24 h: 99200 RLU and 84600 RLU
0.00305 µM, 8 h: 109000 RLU and 100000 RLU
2.222 µM, 24 h: 83400 RLU and 108000 RLU
6.667 µM, 48 h: 29700 RLU and 21900 RLU
20 µM, 72 h: 20400 RLU and 21500 RLU
2.222 µM, 72 h: 20400 RLU and 20000 RLU
0.02743 µM, 8 h: 92800 RLU and 108000 RLU
0.00914 µM, 8 h: 108000 RLU and 107000 RLU

Sample 4
SMILES: NC(=O)c1cccc(-c2cc(Nc3ccc(OC(F)(F)F)cc3)ncn2)c1
Observed: enzyme activity
Action: inhibitor
Concentration: 0.5 µM
Relative to: control
Measurement: remaining activity
Mitogen-activated protein kinase 12 (MAPK12, Homo sapiens, UniProt P53778): 111%
Protein kinase C iota type (PRKCI, Homo sapiens, UniProt P41743): 99.6%
Mitogen-activated protein kinase kinase kinase kinase 2 (MAP4K2, Homo sapiens, UniProt Q12851): 132%
Mast/stem cell growth factor receptor Kit (KIT, Homo sapiens, UniProt P10721): 100%
MAP kinase-interacting serine/threonine-protein kinase 2 (MKNK2, Homo sapiens, UniProt Q9HBH9): 95.4%
Protein kinase C delta type (PRKCD, Homo sapiens, UniProt Q05655): 83.1%
Ephrin type-A receptor 5 (EPHA5, Homo sapiens, UniProt P54756): 103%
Mitogen-activated protein kinase 13 (MAPK13, Homo sapiens, UniProt O15264): 98.1%
Tyrosine-protein kinase BTK (BTK, Homo sapiens, UniProt Q06187): 99.1%
Leucine-rich repeat serine/threonine-protein kinase 2 (LRRK2, Homo sapiens, UniProt Q5S007): 108%
Mitogen-activated protein kinase kinase kinase 10 (MAP3K10, Homo sapiens, UniProt Q02779): 95.4%
Tyrosine-protein kinase Lyn (LYN, Homo sapiens, UniProt P07948): 99.8%
Serine/threonine-protein kinase Chk1 (CHEK1, Homo sapiens, UniProt O14757): 94.2%
Serine/threonine-protein kinase PLK2 (PLK2, Homo sapiens, UniProt Q9NYY3): 98%
Casein kinase I isoform alpha (CSNK1A1, Homo sapiens, UniProt P48729): 103%
Casein kinase II subunit alpha (CSNK2A1, Homo sapiens, UniProt P68400): 94.6%
Serine/threonine-protein kinase WNK2 (WNK2, Homo sapiens, UniProt Q9Y3S1): 115%
Serine/threonine-protein kinase Nek4 (NEK4, Homo sapiens, UniProt P51957): 98%
Dual specificity mitogen-activated protein kinase kinase 6 (MAP2K6, Homo sapiens, UniProt P52564): 101%
Interleukin-1 receptor-associated kinase 4 (IRAK4, Homo sapiens, UniProt Q9NWZ3): 159%
RAC-gamma serine/threonine-protein kinase (AKT3, Homo sapiens, UniProt Q9Y243): 93.5%
Cyclin-dependent kinase 9, with cyclin T1 (CDK9, Homo sapiens, UniProt P50750): 82.2%

A few entries again (sample 1):
Cyclin-dependent kinase 8 (CDK8, Homo sapiens, UniProt P49336): 69%
Phosphatidylinositol 4,5-bisphosphate 3-kinase catalytic subunit gamma isoform (PIK3CG, Homo sapiens, UniProt P48736): 100%
TGF-beta receptor type-2 (TGFBR2, Homo sapiens, UniProt P37173): 83%
3-phosphoinositide-dependent protein kinase 1 (PDPK1, Homo sapiens, UniProt O15530): 100%
Serine/threonine-protein kinase RIO2 (RIOK2, Homo sapiens, UniProt Q9BVS4): 100%
Serine/threonine-protein kinase Nek1 (NEK1, Homo sapiens, UniProt Q96PY6): 100%
Atypical kinase COQ8B, mitochondrial (COQ8B, Homo sapiens, UniProt Q96D53): 99%
